Assay results of several laboratories.
Lines come from different studies, so protocols differ.
Observed: cell growth or viability

SMILES	cell line	assay	conditions	IC50
Cn1cnc2c1c(=O)n(CC(=O)Nc1c(Cl)cccc1Cl)c(=O)n2C	Vero	MTT		364 µg/mL
OCc1ccc(-c2nn(Cc3ccc(Cl)cc3)c3ccccc23)o1	RBE	ATP luminescence		1.58 µM
Cc1[nH]c2ccccc2c1CCNCc1ccc(/C=C/C(=O)NO)cc1	MB002		7 days	0.00353 µM
Cc1cccc(Cn2nc(-c3ccc(CO)o3)c3ccccc32)c1	RBE	ATP luminescence		2.51 µM
Cc1[nH]c(C)c(-c2ccc(-c3ccc(C(F)(F)F)cc3C(F)(F)F)nc2)c(=O)c1Br	HEK293			> 10 µM
OCc1ccc(-c2nn(CCc3ccccc3)c3ccccc23)o1	RBE	ATP luminescence		5.89 µM
COC(=O)CN=c1scc(-c2ccccc2)n1-c1ccc(C)cc1	HeLa	MTT	72 h	8.66 µM
CCc1ccc(N=C2C(=O)Nc3ccccc32)cc1	L02	MTT	48 h	> 100 µM
OCc1ccc(-c2nn(Cc3cccnc3)c3ccccc23)o1	RBE	ATP luminescence		0.275 µM
CC(=O)N1CCC(Nc2cc(C(=O)NC[C@H](O)CN3CCc4ccccc4C3)ncn2)CC1	HD-MB03		7 days	> 10 µM
C=CCNC(=S)NNC(=O)COc1ccc2c(C)c(CC)c(=O)oc2c1C	PC-3	MTT		246 µM
COC(=O)CN=c1scc(-c2ccccc2)n1-c1ccc(Cl)cc1	SiHa	MTT	72 h	1.66 µM
CCC(C(=O)N1C(=O)C(=Nc2ccc(Cl)cc2Br)c2ccccc21)c1ccccc1 (stereo not shown)	L02	MTT	48 h	> 100 µM
Cc1[nH]c(C)c(-c2ccc(OCc3cc(C(F)(F)F)cc(C(F)(F)F)c3)nc2)c(=O)c1Cl	HEK293			> 10 µM
COc1cc2c3c(n(CCCNC(C)C)c(=O)c2cc1OC)-c1nc2c(cc1C3=O)OCO2	TC-71	MTS	72 h	0.153 µM
NCc1ccc(-c2nn(Cc3ccncc3)c3ccccc23)o1	RBE	ATP luminescence		0.603 µM
COc1cc2c3c(n(CCCN4CCOCC4)c(=O)c2cc1OC)-c1nc2c(cc1C3=O)OCO2	TC-71	MTS	72 h	0.756 µM
COc1ccc2c(c1)[C@]1(C[C@H]1c1ccc3c(/C=C/c4ccc(CN5C[C@@H](C)O[C@@H](C)C5)cc4)n[nH]c3c1)C(=O)N2	HD-MB03		7 days	0.00613 µM
COC(=O)CN=c1scc(-c2ccccc2)n1-c1ccc(OC)cc1	Panc 02.03	MTT	72 h	26.1 µM
Cn1nnc2c(C(N)=O)ncn2c1=O	HD-MB03		7 days	> 10 µM
C=Cc1cc(NC(=O)N2CCc3cc(OC)c(C(F)(F)F)cc32)cc(-c2cccnc2)c1	HEK293			> 10 µM
COc1cc2c3c(n(CCCn4ccnc4)c(=O)c2cc1OC)-c1nc2c(cc1C3=O)OCO2	TC-71	MTS	72 h	0.199 µM

SMILES	cell line	assay	conditions	IC50
CCCCCCCCCc1c(C)[nH]c2ccccc2c1=O	HEK293			> 10 µM
Cc1cc2c(F)c(Oc3ncnn4cc(OC[C@@H](C)O)c(C)c34)ccc2[nH]1	MB002		7 days	4.36 µM
Cc1cc(O)c(-c2ccc(Sc3ccc(Cl)cc3)cc2)c(C)n1	HEK293			> 10 µM
CCc1c(C)c2ccc(OCc3nnc(S)n3N)c(C)c2oc1=O	PC-3	MTT		117 µM
CCNCCCn1c2c(c3cc(OC)c(OC)cc3c1=O)C(=O)c1cc3c(nc1-2)OCO3	Kasumi 1	MTS	72 h	0.266 µM
C=C(F)C(=O)N1CCN(c2nc(OC[C@@H]3CCCN3C)nc3c2CCN(c2cccc4cccc(Cl)c24)C3)C[C@@H]1CC#N	NCI-H1373	ATP luminescence		1.23 µM
CC(=NNC(=O)COc1ccc2c(C)c(Cc3ccccc3)c(=O)oc2c1C)c1ccc(Br)cc1	PC-3	MTT		3.58 µM
COc1cc(Nc2c(C#N)cnc3cc(OCCCN4CCN(C)CC4)c(OC)cc23)c(Cl)cc1Cl	MB002		7 days	1.82 µM
Cc1ccccc1Cn1nc(-c2ccc(CO)o2)c2ccccc21	RBE	ATP luminescence		1.38 µM
CC(C)n1nc(-c2ccc3oc(N)nc3c2)c2c(N)ncnc21	MB002		7 days	0.013 µM
COc1cccc(Cn2nc(-c3ccc(CN)o3)c3ccccc32)c1	RBE	ATP luminescence		5.01 µM
COc1cc(Nc2nccc(-c3cnn4nc(OC)ccc34)n2)cc(C(F)(F)F)c1	BT-20	ATP luminescence		1.3 µM
CCNC(=S)NNC(=O)COc1ccc2c(C)c(CC)c(=O)oc2c1C	PC-3	MTT		351 µM
Oc1nc(-c2ccc(C(F)(F)F)cc2)nc2c1CSCC2	HD-MB03		7 days	> 10 µM
Cc1nc(Nc2ncc(C(=O)Nc3c(C)cccc3Cl)s2)cc(N2CC[C@H](O)C2)n1	HuT78	ATP luminescence	72 h	> 10 µM
Cc1[nH]c(C)c(-c2ccc(-c3ccccc3Cl)nc2)c(=O)c1Cl	HEK293			> 10 µM
OCc1ccc(-c2nn(Cc3ccccn3)c3cccnc23)o1	RBE	ATP luminescence		2.24 µM
Cc1[nH]c(C)c(-c2ccc(-c3cccc(OC(F)(F)F)c3)nc2)c(=O)c1Cl	HEK293			> 10 µM
OCn1cncn1	SH-SY5Y	MTT	24 h	13.5 µM
C=CCOc1ccc2c(C)c(CC)c(=O)oc2c1C	PC-3	MTT		855 µM
COc1cccc(C=Cc2nc(=O)c3ccccc3o2)c1OC	HEK293			> 10 µM

Repeated from above:
SMILES	cell line	assay	conditions	IC50
COc1cc(Nc2c(C#N)cnc3cc(OCCCN4CCN(C)CC4)c(OC)cc23)c(Cl)cc1Cl	MB002		7 days	1.82 µM
OCn1cncn1	SH-SY5Y	MTT	24 h	13.5 µM
CC(=NNC(=O)COc1ccc2c(C)c(Cc3ccccc3)c(=O)oc2c1C)c1ccc(Br)cc1	PC-3	MTT		3.58 µM
Cc1cc2c(F)c(Oc3ncnn4cc(OC[C@@H](C)O)c(C)c34)ccc2[nH]1	MB002		7 days	4.36 µM
COc1cc2c3c(n(CCCNC(C)C)c(=O)c2cc1OC)-c1nc2c(cc1C3=O)OCO2	TC-71	MTS	72 h	0.153 µM
CCc1c(C)c2ccc(OCc3nnc(S)n3N)c(C)c2oc1=O	PC-3	MTT		117 µM
OCc1ccc(-c2nn(Cc3ccc(Cl)cc3)c3ccccc23)o1	RBE	ATP luminescence		1.58 µM
